Literature values, collected from citations in different studies.
Protocols differ between the studies behind these lines. ± marks the error that the study gave.

SMILES	test system	setting	solubility
CC(=O)C[C@@H](c1ccccc1)c1c(O)c2ccccc2oc1=O	–	–	4 µg/mL
CCCSc1ccc2nc(NC(=O)OC)[nH]c2c1	simulated gastric fluid	pH 1.2	~500 µg/mL
O=c1c2ccccc2[se]n1-c1ccccc1	water	–	< 1000 µg/mL
O=C(O)c1cc(-c2ccc([C@H]3C[C@H]4C[C@@H]3CN4)cc2)c2ccc(-c3ccc(C(F)(F)F)cc3)cc2c1	–	pH 4	1.22 ± 0.05 µg/mL
CCN(CC)CCOc1ccc2c(c1)C(=O)c1cc(OCCN(CC)CC)ccc1-2	–	pH 7.4	465 µM
Cc1ccnc(OC2CCOC3(CCN(C(=O)C4(c5ccccc5)CCCC4)CC3)C2)c1 (stereo not shown)	–	concentration not given	14 µM
Cn1cc(C2=C(c3cn(C4CCN(Cc5ccccn5)CC4)c4ccccc34)C(=O)NC2=O)c2ccccc21	water	–	< 1000 µg/mL
CCCSc1ccc2nc(NC(=O)OC)[nH]c2c1	intestinal fluid	–	~1 µg/mL
O=C(O)c1cc(-c2ccc(C3CCNCC3)cc2)c2ccc(-c3ccc(C(F)(F)F)cc3)cc2c1	–	pH 7.4	0.36 ± 0.03 µg/mL
Cc1ncc2n1-c1ccc(Cl)cc1C(c1ccccc1F)=NC2	–	–	1 µg/mL

A few entries again:
SMILES	test system	setting	solubility
Cn1cc(C2=C(c3cn(C4CCN(Cc5ccccn5)CC4)c4ccccc34)C(=O)NC2=O)c2ccccc21	water	–	< 1000 µg/mL
